Assay results from different studies.
Protocols differ between the studies behind these lines. Values joined by “and” are separate records of one study, mostly repeats; a detail may differ. Numbers after ± are the reported error.
HTR1D: 5-hydroxytryptamine receptor 1D (HTR1D, Homo sapiens, UniProt P28221)

Structure (SMILES) = O=c1c(O)cc([C@H]2Oc3cc(O)cc(O)c3C[C@H]2O)cc2c([C@H]3Oc4cc(O)cc(O)c4C[C@H]3O)cc(O)c(O)c12; tested on = alpha-amylase; assay = enzyme activity, inhibitor, DNS method; setting = 50 µg/mL, together with: soluble starch; quantity = inhibition; result = 35.1%
Structure (SMILES) = CC1=NNC(=S)NC(=O)C1/N=N/c1ccc(S(N)(=O)=O)cc1 (centres unmarked); tested on = bovine α-glucosidase; assay = enzyme activity, inhibitor, glucose oxidase; setting = 200 µg/mL, together with: maltose; quantity = inhibition; result = 35.4%
Structure (SMILES) = Clc1cccc(OC[C@@H]2CN(CCN3CCc4ccccc43)CCO2)c1; tested on = HTR1D; assay = radioligand binding; setting = concentration not given, together with: [3H]5-CT; quantity = inhibition; result = 74%
Structure (SMILES) = CN1CC(Oc2cnc(C#N)cc2-c2ccn3nc(NC(=O)C4CC4)cc3c2)C1; tested on = Serine/threonine-protein kinase MRCK beta (CDC42BPB, Homo sapiens, UniProt Q9Y5S2); assay = inhibitor, KinaseProfiler panel; setting = 1 µM; quantity = inhibition; result = 22%
Structure (SMILES) = COc1cc(C2=CCCCc3c2ccc(OC)c3OCc2cnc([N+](=O)[O-])n2C)cc(OC)c1OC; tested on = tubulin; assay = colchicine binding; setting = 5 µM, together with: 5.0 µM [3H]colchicine; quantity = inhibition; result = 6.1 ± 3%
Structure (SMILES) = CC1=NOC(=O)C1=NNc1ccc(S(N)(=O)=O)cc1; tested on = bovine α-glucosidase; assay = enzyme activity, inhibitor, glucose oxidase; setting = 500 µg/mL, together with: maltose; quantity = inhibition; result = 45.5%
Structure (SMILES) = CC[C@]12CCCN3CCc4c([nH]c5ccccc45)[C@]31N(Cc1cn(Cc3ccccc3)nn1)C(=O)C2; tested on = Prostacyclin receptor (PTGIR, Homo sapiens, UniProt P43119); assay = beta-arrestin recruitment, antagonist, PathHunter chemiluminescence; setting = 20 µM, together with: agonist at EC80; quantity = inhibition; result = 75%
Structure (SMILES) = Cc1ccnc(OC[C@H]2CN(CC(=O)N3CCc4ccccc43)CCO2)c1; tested on = HTR1D; assay = radioligand binding; setting = concentration not given, together with: [3H]5-CT; quantity = inhibition; result = -0.3%
Structure (SMILES) = CC(C)(NC(=O)O[C@@H]1CN2CCC1CC2)c1csc(-c2ccc(F)cc2)n1; tested on = Adenosylhomocysteinase (AHCY, Homo sapiens, UniProt P23526); setting = 100 µM, counter-screen; quantity = inhibition; result = no inhibition
Structure (SMILES) = O=C(Nc1cccc2c(=O)cc(-c3nnn[nH]3)oc12)c1ccc(OCCCCc2ccccc2)cc1; tested on = LRRC8A/LRRC8C (Homo sapiens, UniProt Q8IWT6+Q8TDW0, L134K/L136K); assay = ion current, whole-cell patch clamp; system = HCT LRRC8-/- cells; setting = 3 µM, -100 mV, L134K/L136K heteromers; quantity = inhibition; result = 54% and 67.4% and 76.2% and 54.1% and 70.3% and 66.2%
Structure (SMILES) = Cc1ccc(OC[C@H]2CN(CCN3CCc4ccccc43)CCO2)cn1; tested on = HTR1D; assay = radioligand binding; setting = concentration not given, together with: [3H]5-CT; quantity = inhibition; result = 33.8%
Structure (SMILES) = CC(=O)c1ccc(-c2cccc(NC(=O)CCc3cccc4c3B(O)OC4)c2)cc1; tested on = Cleavage and polyadenylation specificity factor subunit 3 (Cpsf3, Mus musculus, UniProt Q9QXK7); assay = pre-mRNA cleavage; system = mouse nuclear extract; setting = 1000 µM; scale = reference: DMSO; quantity = inhibition; result = 93%
Structure (SMILES) = CC[C@@H]1[C@H](F)C(=O)N[C@@H]1COc1nccc2cc(C(N)=O)c(OC)cc12; tested on = Cyclin-dependent kinase 10 (CDK10, Homo sapiens, UniProt Q15131); assay = ATP-site probe binding, ActivX profiling; system = THP-1 cell lysate; setting = 0.04 mM, Lys2 site; quantity = inhibition; result = 6.6%
Structure (SMILES) = Cc1nn(-c2nc3c(F)cc(F)cc3s2)c(O)c1C(c1ccc(C(F)(F)F)cc1)c1c(C)nn(-c2nc3c(F)cc(F)cc3s2)c1O; tested on = Cyclic GMP-AMP synthase (CGAS, Homo sapiens, UniProt Q8N884); assay = enzyme activity, inhibitor, pyrophosphatase-coupled; setting = 25 µM, 1.5 h, together with: HT-DNA; quantity = inhibition; result = 84.7%
Structure (SMILES) = O=C(CN1CCO[C@@H](COc2ccccn2)C1)N1CCc2ccccc21; tested on = HTR1D; assay = radioligand binding; setting = concentration not given, together with: [3H]5-CT; quantity = inhibition; result = 1.2%
Structure (SMILES) = CC1=NN(c2cccc(C)c2)C(=O)C1=NNc1ccc(S(N)(=O)=O)cc1; tested on = bovine α-glucosidase; assay = enzyme activity, inhibitor, glucose oxidase; setting = 200 µg/mL, together with: maltose; quantity = inhibition; result = 40.3%
Structure (SMILES) = Cc1cc2c(cc1N1C(=O)c3cccc4c(CCCO)ccc(c34)C1=O)n(C)c(=O)n2C (racemic); tested on = Bromodomain adjacent to zinc finger domain protein 2A (BAZ2A, Homo sapiens, UniProt Q9UIF9); assay = binding, BROMOscan binding; setting = 100 nM; quantity = inhibition; result = 53%
Structure (SMILES) = [2H]c1cc(C)c(NC(=O)c2cnc(Nc3cc(N4CCCCC4)nc(C)n3)s2)c(Cl)c1; tested on = Proto-oncogene tyrosine-protein kinase Src (SRC, Homo sapiens, UniProt P12931); setting = 0.01 µM; quantity = inhibition; result = > 90%
Structure (SMILES) = OCCCN1CC[C@@H]2C[C@H]1c1cc(-c3ccc(C(F)(F)F)cc3)ccc12; tested on = HTR1D; assay = radioligand binding, PDSP competition binding; setting = 10 µM; quantity = inhibition; result = < 50%
Structure (SMILES) = Nc1ncnc2c1ncn2[C@@H]1O[C@H](COP(=O)(O)OS(=O)(=O)O)[C@@H](OP(=O)(O)O)[C@H]1O; assay = binding, MIDAS equilibrium dialysis LC-MS; system = A2AR-BRIL thermostabilized; setting = concentration not given; scale = reference: no-protein control; quantity = log2 fold change; result = -0.417
Structure (SMILES) = CC1=NN(c2ccc(F)cc2)C(=O)C1=NNc1ccc(S(N)(=O)=O)cc1; tested on = bovine α-glucosidase; assay = enzyme activity, inhibitor, glucose oxidase; setting = 200 µg/mL, together with: maltose; quantity = inhibition; result = 41.9%
Structure (SMILES) = CC(C)c1noc2ncc(C(=O)c3ccccc3O)cc12; tested on = Voltage-gated potassium channel KCNC1 (Kcnc1, Mus musculus, UniProt P15388); assay = ion current, inhibitor, whole-cell patch clamp; setting = 10 µM; quantity = inhibition; result = 1.44% and 0% and 0.76% and 2.66%
Structure (SMILES) = Cc1nn(-c2nc3ccc(Cl)c(Cl)c3[nH]2)c(O)c1C1OC(=O)c2ccccc21 (centres unmarked); tested on = Cyclic GMP-AMP synthase (Cgas, Mus musculus, UniProt Q8C6L5); assay = enzyme activity, inhibitor, pyrophosphatase-coupled; setting = 1 µM, 1.5 h, mouse enzyme; quantity = inhibition; result = 97.6%
Structure (SMILES) = CC1=NNC(=O)C1=NNc1ccc(S(N)(=O)=O)cc1; tested on = bovine α-glucosidase; assay = enzyme activity, inhibitor, glucose oxidase; setting = 200 µg/mL, together with: maltose; quantity = inhibition; result = 38.8%
Structure (SMILES) = O=C(NO)c1ccc(CN2CCCCc3ccccc32)c(F)c1; tested on = Mu-type opioid receptor (OPRM1, Homo sapiens, UniProt P35372); assay = radioligand binding, PDSP radioligand binding; setting = 10 µM; quantity = inhibition; result = 4.75%
Structure (SMILES) = CN1CCN(c2cc(-c3ccncc3)c(-c3ccc4ccccc4c3)nn2)CC1; tested on = Parathyroid hormone/parathyroid hormone-related peptide receptor (PTH1R, Homo sapiens, UniProt Q03431); assay = antagonist, FLIPR; setting = 10 µM; quantity = inhibition; result = 14.5%
Structure (SMILES) = COc1cccc(OC[C@@H]2CN(CC(=O)N3CCc4ccccc43)CCO2)c1; tested on = HTR1D; assay = radioligand binding; setting = concentration not given, together with: [3H]5-CT; quantity = inhibition; result = 17.2%
Structure (SMILES) = O=C(O)/C=C/CC(=O)O; assay = binding, MIDAS equilibrium dialysis LC-MS; system = A2AR-BRIL thermostabilized; setting = concentration not given; scale = reference: no-protein control; quantity = log2 fold change; result = -0.0534
Structure (SMILES) = CCc1oc2ccccc2c1C(=O)c1cc(Br)c(O)c(Br)c1; tested on = Solute carrier family 22 member 12 (SLC22A12, Homo sapiens, UniProt Q96S37, Y152F); assay = urate uptake; system = HEK293T; setting = 0.5 µM, 10 min, 37 °C, together with: 200 µM [14C]urate; quantity = inhibition; result = 89.3% and 90.3% and 90.1% and 84.2% and 84% and 80.3%
Structure (SMILES) = CC1=NN(c2cccc([N+](=O)[O-])c2)C(=O)C1=NNc1ccc(S(N)(=O)=O)cc1; tested on = bovine α-glucosidase; assay = enzyme activity, inhibitor, glucose oxidase; setting = 100 µg/mL, together with: maltose; quantity = inhibition; result = 47.5%
Structure (SMILES) = COc1cc(-c2cc(C(C)=O)n3ccccc23)c(OC)cc1Cn1ccnc1; tested on = CREB-binding protein (CREBBP, Homo sapiens, UniProt Q92793); setting = 1 µM; quantity = inhibition; result = 35.4%
Structure (SMILES) = CC1=NCCNC(=O)C1=NNc1ccc(S(N)(=O)=O)cc1; tested on = bovine α-glucosidase; assay = enzyme activity, inhibitor, glucose oxidase; setting = 10 µg/mL, together with: maltose; quantity = inhibition; result = 40.052 ± 0.000699%
Structure (SMILES) = NC/C(=C\F)COc1cccc(Cn2c(=S)[nH]c(=O)c3[nH]cnc32)c1; tested on = Amine oxidase [copper-containing] 3 (Rattus norvegicus, UniProt O08590); system = rat adipose tissue; setting = 1 µM; quantity = inhibition; result = 102%
Structure (SMILES) = CC1=NN(c2ccccc2)C(=O)C1=NNc1ccc(S(N)(=O)=O)cc1; tested on = bovine α-glucosidase; assay = enzyme activity, inhibitor, glucose oxidase; setting = 100 µg/mL, together with: maltose; quantity = inhibition; result = 38%
Structure (SMILES) = Cc1c(-c2ccccc2)oc2c(C(=O)OCCN3CCCCC3)cccc2c1=O; tested on = LRRC8A (Homo sapiens, UniProt Q8IWT6); assay = ion current, inhibitor; system = HEK293; setting = 30 µM, together with: hypotonic stimulation; quantity = inhibition; result = ~78%

Some of these lines once more:
Structure (SMILES) = Cc1cc2c(cc1N1C(=O)c3cccc4c(CCCO)ccc(c34)C1=O)n(C)c(=O)n2C (racemic); tested on = Bromodomain adjacent to zinc finger domain protein 2A (BAZ2A, Homo sapiens, UniProt Q9UIF9); assay = binding, BROMOscan binding; setting = 100 nM; quantity = inhibition; result = 53%
Structure (SMILES) = Cc1ccc(OC[C@H]2CN(CCN3CCc4ccccc43)CCO2)cn1; tested on = HTR1D; assay = radioligand binding; setting = concentration not given, together with: [3H]5-CT; quantity = inhibition; result = 33.8%
